# Published values pooled from the literature.
# Parts stem from different laboratories: compare values within a part only. Substitutions count along the parent as printed.

# Block 1 — method: DHFR PCA, deep sequencing; medium: yeast; with: (+)-ABA 0.39 µM; relative to: wild-type fitted maximum; direction: higher = stronger binding
# Target: ABI1, truncated, D143A, DHFR fusion (Arabidopsis thaliana)
# Setting: methotrexate growth selection, single substitutions
# Starting sequence: PYL1, truncated, DHFR fusion (Arabidopsis thaliana); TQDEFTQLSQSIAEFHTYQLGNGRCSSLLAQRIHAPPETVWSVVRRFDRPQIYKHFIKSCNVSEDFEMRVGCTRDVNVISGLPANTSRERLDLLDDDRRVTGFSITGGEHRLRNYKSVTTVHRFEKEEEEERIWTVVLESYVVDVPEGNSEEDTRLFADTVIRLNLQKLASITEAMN; partner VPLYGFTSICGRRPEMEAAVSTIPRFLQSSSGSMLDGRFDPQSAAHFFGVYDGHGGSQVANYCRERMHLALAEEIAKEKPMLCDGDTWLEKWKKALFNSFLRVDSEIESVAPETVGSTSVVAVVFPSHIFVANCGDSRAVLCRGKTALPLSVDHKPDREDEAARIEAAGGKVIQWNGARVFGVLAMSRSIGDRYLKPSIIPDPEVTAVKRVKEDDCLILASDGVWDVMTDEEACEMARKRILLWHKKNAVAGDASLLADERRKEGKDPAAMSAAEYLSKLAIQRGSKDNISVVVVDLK
Variant,relative binding score [%]
I172N,6.19
S59T,30.8
D97I,20.4
I162F,-10.6
R113K,67.5
V121G,2.03
W134T,61.1
I162G,9.4
D153C,-8.87
S171E,65.8
C25P,3.45
V40A,-2.34
V142C,40
D159P,-21.1
C25G,-4.4
S59H,9.67
R46D,-8.08

# Block 2 — method: Sort-seq; measured: YFP reporter; medium: E. coli; setting: PhoQ-PhoP variant library; with: 10 µM Mg2+; relative to: high Mg2+ state; direction: higher = stronger signaling
# Substance: PhoQ, residues 284 288 289 292 302 303 TLMATV
target,fold induction
"PhoP, residues 12 14 15 18 19 TQCLL (Escherichia coli, UniProt P23836)",2.21
"PhoP, residues 12 14 15 18 19 ICWRQ (Escherichia coli, UniProt P23836)",6.27
"PhoP, residues 12 14 15 18 19 VHTVL (Escherichia coli, UniProt P23836)",4.88

# Block 3 — target: FOS, bZIP domain (human); method: DHFR protein complementation; medium: yeast; relative to: wild-type JUN-FOS pair; direction: higher = stronger binding
# Setting: single substitutions, most at no-binding floor
# Starting sequence: JUN, bZIP domain (human); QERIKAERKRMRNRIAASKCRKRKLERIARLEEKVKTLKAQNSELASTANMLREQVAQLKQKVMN; partner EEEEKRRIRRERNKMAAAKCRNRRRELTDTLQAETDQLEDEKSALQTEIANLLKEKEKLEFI
Variant,binding fitness
E44D,-0.221 natural log
E54T,-0.165 natural log
M51V,-0.0618 natural log
L59P,-1.16 natural log
Q41I,-0.0206 natural log
R53F,-0.897 natural log
K39H,-0.365 natural log
S43R,0.0936 natural log
R53L,-0.885 natural log
T37N,0.0476 natural log
T48L,-0.0902 natural log
K34R,0.14 natural log
R30N,-0.0474 natural log
A40Q,0.0762 natural log
T48E,-0.186 natural log
A40K,0.0868 natural log
I28Q,-0.0523 natural log
E44P,-1.17 natural log
K34Y,-0.121 natural log
M51I,-0.00303 natural log
E32S,-0.0161 natural log
V35R,-0.116 natural log
Q55K,-0.0601 natural log
E44K,-0.0388 natural log
A46M,-0.0534 natural log

# Block 4 — method: protein-binding microarray; form: double-stranded DNA, one strand shown; medium: in vitro; tested at: 2200 nM top; setting: 60-bp whole probe; with: salmon DNA 0.4 mg/ml; relative to: random background probes; direction: higher = stronger binding; shared flanks, not repeated: GCCTAGCAC … GTCTTGATTCGCTTGACGCTGCTG
# Target: Interferon regulatory factor 7, full length, phosphomimetic (IRF7, Homo sapiens, UniProt Q92985, residues 1-503, S471D/S472D/S475D/S476D/S477D/S483D/S484D/S487D)
# Construct (chain): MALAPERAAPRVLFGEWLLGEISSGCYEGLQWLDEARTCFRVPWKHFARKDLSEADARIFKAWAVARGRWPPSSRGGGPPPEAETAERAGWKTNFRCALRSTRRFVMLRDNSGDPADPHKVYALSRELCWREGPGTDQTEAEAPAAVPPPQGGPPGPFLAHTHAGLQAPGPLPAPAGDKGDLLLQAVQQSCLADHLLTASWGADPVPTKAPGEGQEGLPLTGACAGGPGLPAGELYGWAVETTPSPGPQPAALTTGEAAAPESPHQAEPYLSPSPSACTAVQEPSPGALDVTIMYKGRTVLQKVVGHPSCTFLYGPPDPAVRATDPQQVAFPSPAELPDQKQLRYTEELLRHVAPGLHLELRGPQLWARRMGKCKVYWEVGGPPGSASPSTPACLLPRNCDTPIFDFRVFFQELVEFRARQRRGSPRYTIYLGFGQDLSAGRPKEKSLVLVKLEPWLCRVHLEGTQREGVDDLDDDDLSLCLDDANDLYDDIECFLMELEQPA
Sequence,fitted relative affinity [z-score]
TTAGATTTCAGTTCCGATCAGTGCTAG,1.59
GGCGGTATCGGTATCGGGACGTGCTAG,-0.198
GACCATATCAGACTGGAGACGTGCTAG,0.226
TTAGGACTCGGTCTCGGTTAGTGCTAG,0.495
TTAGGACTGCTTAACCTTTAGTGCTAG,0.0243
GGCGGTTTCCTACTGCTGACGTGCTAG,1.05
ACAGCCTTTCTAACTTGAAAGTGCTAG,0.538
GTCGGACTGCTTCTCCTGACGTGCTAG,0.953
TCATACATGGGTTTTCAGACTGTGCTA,0.65
TTAGGTCTGGACTATCGGTTAGTGCTA,0.0448
GACGATCTGGGGACTGGAGACGTGCTA,-0.14
TCACCTCACAGTTTGTAACTGTGCTAG,1.16
TCACCTCTCCTCTCAGGAACTGTGCTA,1.37
TCACTAGTGTTTTTCTCACTGTGCTAG,1.1
GACGATTTCGGGTTTCGAGAAGTGCTA,4.65
GACGGACTGGGGTATCGGGGCGTGCTA,-0.647
AGGACCATCCCTTATAAATAGGTGCTA,-0.0895
TTAGGCCTGGGTATCGGTTAGTGCTAG,-0.445

# Block 5 — target: CCNA2, cyclin fold, Cln2 fusion (human); method: yeast growth competition, sequencing; medium: yeast; setting: strong parent motif; relative to: not given; direction: higher = stronger binding
# Starting sequence: INSM1 docking peptide (human); PKAIRKLHFEDEV
Variant,normalised enrichment score
PKAIRYLHFEDEV [K6Y],2.03
PKAYRKLHFEDEV [I4Y],5.49
PKAIRKLHFMDEV [E10M],4.72
PKAIRKLKFEDEV [H8K],5.27
PKAIRKLHFIDEV [E10I],4.4
PKAIRTLHFEDEV [K6T],3.21
PKAIRKLHFHDEV [E10H],4.45
PKAIRKLEFEDEV [H8E],5.19
PKAIRKFHFEDEV [L7F],0.272
PKFIRKLHFEDEV [A3F],4.28
PKAIRKRHFEDEV [L7R],0.549
PKAIRKLHFEPEV [D11P],4.55
PKAARKLHFEDEV [I4A],6.1
PKAIYKLHFEDEV [R5Y],0.525
PKAIGKLHFEDEV [R5G],0.524
PKAIRKLHFEDRV [E12R],4.39
PKAIRKLNFEDEV [H8N],5.61
PKAIRRLHFEDEV [K6R],5.67
PKAIKKLHFEDEV [R5K],4.15
PMAIRKLHFEDEV [K2M],4.16
PKAIAKLHFEDEV [R5A],1.06
PKAIPKLHFEDEV [R5P],-0.419
PKAIRKLHSEDEV [F9S],0.376
PKAQRKLHFEDEV [I4Q],6.49
PKAIRDLHFEDEV [K6D],0.181

# Block 6 — method: RNA Bind-n-Seq; form: RNA; medium: in vitro; tested at: 365 nM; relative to: no-protein control; direction: higher = stronger binding
# Target: RNA binding protein fox-1 homolog 2, RRM domain, GST-SBP tag (RBFOX2, Homo sapiens, UniProt O43251-10, residues 100-194)
# Setting: natural RNA segment, single round, ends assumed
# Shared flanks, not repeated: GGGAGUUCUACAGUCCGACGAUC … UGGAAUUCUCGGGUGCCAA
# Construct (chain): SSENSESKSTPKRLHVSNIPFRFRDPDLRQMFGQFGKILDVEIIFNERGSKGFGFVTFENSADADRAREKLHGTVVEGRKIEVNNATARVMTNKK
Sequence,RBNS enrichment (R)
AGCCAUUCCAUCUCUUCCGUCCGUCUGUCUGUCUGGGUUGUUUUGUUUUGUUGUUGUUUUGAGACAGGGUUUCUUUGUGUAGCCCUGACUGUUCUGGAACUUGCUCUGAA,1.2
AGCAGAGCCCUCAGUGAGAGCUGCACACACGAGCCUCUAGCAUCACUACACAGUGUGCACACACUGGGGACUCCCCAGUCCUCCUGACUAUUAUGGGGACACAGGAAAGA,0.413
UCAGCCCUGUGCCCUGAUGAUGUCCCUGGCCUGUGAAUUCUGUCCUUGACUGACCCGUGCUCCUGGAGGAUCCCCAGUUGUGUCAAUGAUAGAUAGUUUAGUCAACAUCC,0.526
CAAAUUGUCAACUCCCUUGCCCAAUACUGGUGGGCUGUGAACAGCCUAAGGGACCUCGCUCCAGCUGGUUGGGCACAGCAGGCUCCUGCCCUGGUGCUUUCAGCUUCCCC,0.25
AAAGAAGAGUUUGUGACUAUUCUCAUCUCUGUUUUGGACGUUUACUAGACUUUGAUUUCCUUAAUAGCCCAUUUCUGUUAACCUCUUAUCACUAAGAAAGAAAGGAAAGA,0.186
AUGAACUAUAAUUGAAUAGAUACCAAAAAUAGAAUGACAAAUGUAUUUUAAUAGCAGAUGAGGCAGUUUUAGGAUGAAUUUUCCACUGUUGAUUUUACUUCAAGACAUAG,0.497
CAAUUAUGCACCAUCUAUUUUUGUACUCUUACUCAUGAUCCAUUUAAAAGUCUACUCAGCUCUAGAUUAGAUACCAGAAGACCCUCUAAGUAACUGAUAACUGAGAUUCG,0.668
AGGGCAGAUCCACCGUGCCCUGGUUCCCCAGACAUUCCAGAAUGCCCCACAUCAUUGGCACAGGAGUGGGGCAGCCCCGGAAGGAACCAGGGAUUAGGCUGUAGGGGGGU,0.543
CAGUUUAUGGAUAUGCUGCUUUAAACUUGGAAGGGGGAGACAGGAAGUUUUAAUUGUUCUGACUAAACUUAGGAGUUGAGCUAGGAGUGCGUUCAUGGUUUCUUCACUAA,0.391
AUAAAAUUAAGGACACUGAAAAUUCUUAUGCUUGAUGAAAAACUUAAGGCUAGCCUAGAAGGGCCAAACAUGUCCUUAUUGACAAAGCUGGUCUUUGUCGCCUAAUUAGG,0.356
AGUUUUACAGAAAUUUGGCUGCACUCUGAGAGUGCUUACUCACAGUUUAUUUGCUUUUUUUAAAAAGGAGAUUAUUCUAAAAUAUAAACUUAUUUGCAUAUAUUGGAGGA,0.606
AGGGGAUUUUUAAAUGUCAUAAAUUUGAAGAGUGGUGGGUUGCAUUUUCUUCAUGGGUUUAUGUUUUCGUUUCAUUUUGGACUCAAUUUCACAUCACCAAAUUCCUCAUU,0.955

# Block 7 — method: universal PBM; form: double-stranded DNA, one strand shown; medium: in vitro; tested at: not given; direction: higher = stronger binding
# Target: Sal-like protein 4, full length isoform B (SALL4, Homo sapiens, UniProt Q9UJQ4-2, residues 1-616)
# Setting: 8-mer, flanks averaged, mean of replicates
# Target sequence (chain): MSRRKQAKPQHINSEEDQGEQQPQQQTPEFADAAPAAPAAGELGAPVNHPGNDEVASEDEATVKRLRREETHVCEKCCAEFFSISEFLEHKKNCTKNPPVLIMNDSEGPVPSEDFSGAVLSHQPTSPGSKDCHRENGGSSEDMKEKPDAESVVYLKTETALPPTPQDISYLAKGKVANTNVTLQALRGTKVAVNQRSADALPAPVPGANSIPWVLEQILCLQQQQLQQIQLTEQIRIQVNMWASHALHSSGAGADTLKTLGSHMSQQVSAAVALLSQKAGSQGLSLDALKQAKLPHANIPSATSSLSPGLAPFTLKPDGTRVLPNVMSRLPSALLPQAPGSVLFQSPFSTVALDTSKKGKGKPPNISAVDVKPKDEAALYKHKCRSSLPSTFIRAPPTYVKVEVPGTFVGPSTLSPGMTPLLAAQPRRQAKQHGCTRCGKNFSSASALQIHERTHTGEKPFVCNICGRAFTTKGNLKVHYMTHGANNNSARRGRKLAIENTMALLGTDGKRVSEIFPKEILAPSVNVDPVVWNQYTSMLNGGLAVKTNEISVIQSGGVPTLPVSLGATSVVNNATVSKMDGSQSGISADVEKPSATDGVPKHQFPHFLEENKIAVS
Sequence,E-score
GAGGATAC,0.105
ACTGCCGG,-0.257
CCCCTATC,-0.201
CAGGGAAA,-0.0734
CCGGCCAC,-0.352
AGGATAGA,0.0505
CGTCACCC,-0.147
CTAACGTC,0.00715
GATCAAAA,0.181
AAAGCGAA,0.121
GAAAGGTC,-0.0297
AGGTGGAT,-0.0937
TACGGCCA,-0.208
AGTGGAGG,-0.146
CATTGAGG,0.00379
CTTGGGGC,-0.292
ACCATAGT,0.0754
GCGGGTTA,-0.17
GTTATCGA,-0.0223
GATAATCA,0.218
CCAAATCA,0.0584
ACCTTGCT,-0.147
ACAGCCAA,-0.0237
AAGTCTAA,0.106
ATACGGGG,-0.0981

# Some of these lines once more (block 7):
Sequence,E-score
CGTCACCC,-0.147
ACCATAGT,0.0754
GAGGATAC,0.105
GTTATCGA,-0.0223
GATCAAAA,0.181
GAAAGGTC,-0.0297
CTTGGGGC,-0.292
AAGTCTAA,0.106
AGTGGAGG,-0.146
CATTGAGG,0.00379
ACTGCCGG,-0.257
CCAAATCA,0.0584
GATAATCA,0.218
CCGGCCAC,-0.352
ATACGGGG,-0.0981
GCGGGTTA,-0.17
ACCTTGCT,-0.147
